Published values of several laboratories.
Numbered parts are unrelated; each lists some results of a single study. Substitutions count along the parent as printed.

Study 1 — target: CREBL2, bZIP domain (human); technique: DHFR protein complementation; sample: yeast; baseline: wild-type JUN-FOS pair; direction: higher = stronger binding
Notes: single substitutions, most at no-binding floor
Parent: JUN, bZIP domain (human); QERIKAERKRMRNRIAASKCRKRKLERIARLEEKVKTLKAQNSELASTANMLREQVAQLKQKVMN; partner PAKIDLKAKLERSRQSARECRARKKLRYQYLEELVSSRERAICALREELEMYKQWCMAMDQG
| Variant | binding fitness |
| --- | --- |
| S43V | -1.5 natural log |
| A49T | -1.34 natural log |
| Q55K | -1.49 natural log |
| E44I | -1.24 natural log |
| R53W | -1.42 natural log |
| R30V | -1.47 natural log |
| Q41T | -1.33 natural log |
| Q55A | -1.56 natural log |
| R30G | -1.39 natural log |
| R30I | -1.58 natural log |
| K39G | -1.48 natural log |
| L52Q | -1.57 natural log |
| S47Q | -1.58 natural log |

Study 2 — technique: DHFR PCA, deep sequencing; sample: yeast; with: (+)-ABA 200 µM; baseline: wild-type fitted maximum; direction: higher = stronger binding
Target: ABI1, truncated, D143A, DHFR fusion (Arabidopsis thaliana)
Notes: methotrexate growth selection, single substitutions
Parent: PYL1, truncated, DHFR fusion (Arabidopsis thaliana); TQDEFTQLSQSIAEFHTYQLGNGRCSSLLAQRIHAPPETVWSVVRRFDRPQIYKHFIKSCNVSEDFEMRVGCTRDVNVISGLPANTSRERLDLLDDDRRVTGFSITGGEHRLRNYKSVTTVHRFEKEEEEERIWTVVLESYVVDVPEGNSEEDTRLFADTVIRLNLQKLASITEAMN
| Variant | relative binding score [%] |
| --- | --- |
| W41M | 9.85 |
| H16S | -2.81 |
| I133M | 112 |
| N22V | 99 |
| E129Y | 107 |
| K54N | 16.7 |
| Q7W | 104 |
| Y115H | 5.27 |
| D153E | 100 |
| T119L | 99.5 |
| V44Y | -3 |
| E127L | 101 |

Study 3 — technique: protein-binding microarray; molecule type: double-stranded DNA, one strand shown; sample: in vitro; tested at: 2200 nM top; notes: 60-bp whole probe; with: salmon DNA 0.4 mg/ml; baseline: random background probes; direction: higher = stronger binding; constant ends, left off below: GCCTAGCAC … GTCTTGATTCGCTTGACGCTGCTG
Target: Interferon regulatory factor 7, full length, phosphomimetic (IRF7, Homo sapiens, UniProt Q92985, residues 1-503, S471D/S472D/S475D/S476D/S477D/S483D/S484D/S487D)
UniProt Q92985, sequence (whole entry, unmodified, looked up): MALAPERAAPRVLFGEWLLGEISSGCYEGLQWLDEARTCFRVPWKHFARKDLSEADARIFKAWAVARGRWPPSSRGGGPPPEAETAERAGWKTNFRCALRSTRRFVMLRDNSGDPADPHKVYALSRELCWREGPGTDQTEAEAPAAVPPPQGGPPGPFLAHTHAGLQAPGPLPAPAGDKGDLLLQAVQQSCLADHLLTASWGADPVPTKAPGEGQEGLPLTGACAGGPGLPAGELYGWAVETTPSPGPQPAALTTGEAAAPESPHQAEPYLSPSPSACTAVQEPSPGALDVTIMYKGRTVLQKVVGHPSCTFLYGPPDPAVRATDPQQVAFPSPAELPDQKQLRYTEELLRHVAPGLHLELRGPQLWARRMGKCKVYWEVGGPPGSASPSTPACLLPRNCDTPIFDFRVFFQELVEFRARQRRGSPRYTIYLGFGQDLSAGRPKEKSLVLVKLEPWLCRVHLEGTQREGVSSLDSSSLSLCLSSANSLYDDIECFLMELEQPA
| Oligonucleotide | fitted relative affinity [z-score] |
| --- | --- |
| GACGGTTTCGGTCTCGGGTCGTGCTAG | 7.26 |
| GTAGGACTGCTTTTCCTTTAGTGCTAG | 1.44 |
| TTAGGACTGGCTTTCGGTTAGTGCTAG | 3.88 |
| TTCTTGCGGAGTTTCTTGCAGTGCTAG | 0.396 |
| TTAGGTATCCTTATCCTTGAGTGCTAG | 0.515 |
| AACGGTATCGACACTGGGGACGTGCTA | 0.112 |
| TCATTTTTTTCTTTTATACTGTGCTAG | 2.97 |
| TACAGCAGGGAGGGAGGCACGTGCTAG | -0.638 |
| TTAGGACTGGGGTGTCGGTTAGTGCTA | -0.534 |
| GACGGTTCCCTTTTCCTGAGGTGCTAG | 2.35 |
| ATGAGCTTCAAACCATAACCGTGCTAG | -0.0898 |
| GACGCTATCGGGACTGGGGACGTGCTA | -0.149 |
| GACGGTTTCGACTTTCGGCACGTGCTA | 7.53 |
| GACGATCTGAGTCTCGAGACGTGCTAG | -0.0803 |
| TTCCAGCTGGTGACTAGCGAGTGCTAG | 0.139 |
| TTAGAACTGGGGCTTCGATTAGTGCTA | -0.312 |
| TGAGGTTTCGGTCTCGGTTAGTGCTAG | 6.02 |
| TTAGGTTTCTTTTCCCTTTAGTGCTAG | 4.14 |
| TTAGTTCTCCTACTGCTTTAGTGCTAG | 1.47 |

Study 4 — technique: RNA Bind-n-Seq; molecule type: RNA; sample: in vitro; tested at: not given; baseline: input RNA pool; direction: higher = stronger binding
Target: RING finger protein unkempt homolog, zinc fingers 1-6, GST-SBP tag (UNK, Homo sapiens, UniProt Q9C0B0, residues 30-357)
Notes: RNA with constant flanks, human and mouse sites, ends assumed
Residues (chain): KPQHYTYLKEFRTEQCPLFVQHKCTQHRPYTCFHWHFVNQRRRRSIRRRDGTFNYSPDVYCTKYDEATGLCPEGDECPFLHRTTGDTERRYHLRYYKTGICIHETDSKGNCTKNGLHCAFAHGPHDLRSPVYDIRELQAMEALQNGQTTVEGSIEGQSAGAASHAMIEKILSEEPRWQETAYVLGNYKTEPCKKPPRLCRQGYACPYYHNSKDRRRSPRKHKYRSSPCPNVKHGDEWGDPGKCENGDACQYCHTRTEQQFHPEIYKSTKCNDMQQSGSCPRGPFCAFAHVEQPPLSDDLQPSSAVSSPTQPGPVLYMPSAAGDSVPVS
| Oligonucleotide | bound/input enrichment |
| --- | --- |
| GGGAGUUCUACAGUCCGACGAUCAGCAAAUUCUGUGACUAUGAAAGGAGAUUCCAGAUGACUUUCCAGUUCAGCAUAUGGGACAAAUUUCGGGACUUAGAAAAUUUGCCAGACACUAAGUUCUCAAAUCUGGUUCAUCUGCUGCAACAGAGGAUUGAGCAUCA | 0.0682 ratio |
| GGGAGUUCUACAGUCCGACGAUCAGGUUGGGCCAUGACCCCUAUAGAUUAGGUCAUGAUGCUUACAGGUUAGGACAAGACCCUUAUAGAUUAGGCCAUGAUCCCUACAGACUAACUCCUGAUCCCUAUAGGAUGUCACCUAGACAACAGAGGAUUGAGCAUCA | 9.16 ratio |
| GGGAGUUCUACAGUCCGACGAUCGCAGUGGAAAGAGAAGCAGAGCAUAUGAACUAUGUGUCCUUUUCAGGGAGUAAGGCAUGUCGAGGCUUUGGCUAUGUCACUUUUUCAAUGCUGGAAGAUGUUCAGAGGGCCCUCAAGGAGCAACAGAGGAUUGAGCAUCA | 0.181 ratio |
| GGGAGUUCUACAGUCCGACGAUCGCAACGCCAAAGGUGAAGAACCAGCUCAAGGAGACCACUGAGGCAGCCUGCAGAUACGGAGCCUUUGGGCUGCCCAUCACCGUGGCCCAUGUGGAUGGCCAAACCCACAUGUUAUUUGGCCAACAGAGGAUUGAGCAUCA | 0.101 ratio |
| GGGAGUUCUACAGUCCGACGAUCUCGGGGUGGAAGUCCAUGAUUCAGUCUCAUCCCCAUUUAGUGGCAGAAGCGUUCCGAGCACUAGCAUCUUCACAGUGUCCACAGUUUGGUAUUCCACGCAAAAGGUUAAAGCAGUCUUGACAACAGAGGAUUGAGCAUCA | 0.0895 ratio |
| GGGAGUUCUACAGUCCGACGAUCCCUUGGCAGCCAUUUCUCCCAGCAGUUUUAAAGGAUGAACAUUGGAUUUCAUGCCAUCCCAUAGAAAACCUGUUUUAAAAUUUUAGGGAUCUUUACUUGGUCAUACAUGAAAAGUACACUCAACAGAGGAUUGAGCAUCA | 1.83 ratio |
| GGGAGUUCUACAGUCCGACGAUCCACCUCAAAGUCUUUGCAAAACCCAAAAUCACAUAUGUAGAGAACCAGACUGCCAUGGAAUUAGAGGAGCAGGUCACUCUUACCUGUGAAGCCUCCGGAGACCCCAUUCCCUCCAUCACCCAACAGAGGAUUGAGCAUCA | 0.352 ratio |
| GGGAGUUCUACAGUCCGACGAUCCCUUCUCCUUCAAGUGGUGGGACCGUCAAAAGCGACAAAGCAAAAACAAAGCCACCGCUUCAAGUAACAAAGGUAGACAAUAAUUUGACAGUAGAGAAAGCCACCAAGAAAACAGUUGUUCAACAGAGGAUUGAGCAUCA | 0.589 ratio |

Study 5 — target: CCNB1, cyclin fold, Cln2 fusion (human); technique: yeast growth competition, sequencing; sample: yeast; notes: strong parent motif; baseline: not given; direction: higher = stronger binding
Parent: MASTL docking peptide (human); PMIAKNLMCELDE; partner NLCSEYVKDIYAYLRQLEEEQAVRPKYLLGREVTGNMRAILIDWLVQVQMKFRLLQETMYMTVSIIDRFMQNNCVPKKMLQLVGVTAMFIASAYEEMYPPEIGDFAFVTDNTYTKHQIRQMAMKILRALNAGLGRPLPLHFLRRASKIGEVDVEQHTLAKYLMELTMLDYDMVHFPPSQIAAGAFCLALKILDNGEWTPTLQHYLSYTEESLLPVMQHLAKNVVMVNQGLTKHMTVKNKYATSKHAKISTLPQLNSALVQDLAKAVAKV
| Variant | normalised enrichment score |
| --- | --- |
| PMIAKNLMCSLDE [E10S] | 0.414 |
| PMIAKHLMCELDE [N6H] | 0.267 |
| PMIACNLMCELDE [K5C] | 0.56 |
| PMIAKMLMCELDE [N6M] | 0.36 |
| PMIAKNIMCELDE [L7I] | 0.642 |
| PMIHKNLMCELDE [A4H] | 0.841 |
| PMIAKNLLCELDE [M8L] | 1.99 |
| PMIAKNLMCILDE [E10I] | 1.28 |
| PMIAKELMCELDE [N6E] | -0.0342 |
| PMIAFNLMCELDE [K5F] | 0.295 |
| PMYAKNLMCELDE [I3Y] | 0.501 |
| PMIAYNLMCELDE [K5Y] | 0.549 |
| PMIAKNLMCELEE [D12E] | 1.93 |
| PMIAKNLMCWLDE [E10W] | 0.785 |
| PMIAPNLMCELDE [K5P] | -0.214 |
| PMIAKNLMCNLDE [E10N] | 0.411 |
| PMQAKNLMCELDE [I3Q] | -0.151 |
| PMIAKNLMCELYE [D12Y] | 0.355 |
| PVIAKNLMCELDE [M2V] | 2.2 |
| PMIAKNLMCFLDE [E10F] | 0.563 |
| PMIAKNLMCEHDE [L11H] | 0.329 |
| PMIAKNLPCELDE [M8P] | 0.103 |
| PMIAKNLMCEPDE [L11P] | -0.215 |
